Measured values from different studies.
Every numbered part comes from another study and shows a few of its results, in no order. Changes are numbered by the printed parent chain.

Study 1
Target: ABI1, truncated, D143A, DHFR fusion (Arabidopsis thaliana, UniProt P49597)
Method: DHFR PCA, dose-response
Sample: yeast
Setting: Hill fit, mean, not affinity
With: (+)-ABA, dose series
Direction: lower = more sensitive
Starting sequence: PYL1, truncated, DHFR fusion (Arabidopsis thaliana, UniProt Q8VZS8); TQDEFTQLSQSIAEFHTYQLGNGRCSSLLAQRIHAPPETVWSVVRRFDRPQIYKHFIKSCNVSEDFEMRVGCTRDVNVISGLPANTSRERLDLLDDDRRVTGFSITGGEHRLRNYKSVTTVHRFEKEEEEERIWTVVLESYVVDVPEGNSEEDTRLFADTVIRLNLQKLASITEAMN
Variant	ABA EC50
V100C	9.22 µM
V62Y	31.8 µM
R111Q	41 µM
Q167E	11.3 µM
S63G	1.89 µM
E38G	11.1 µM
F124C	2.82 µM
R111D	193 µM
T6W	5.79 µM
L29W	109 µM
R155T	2.85 µM
D144G	145 µM
E67F	6.57 µM
L156G	11.5 µM
D159H	116 µM
R69F	8.41 µM
R113F	11.7 µM
L112C	91.8 µM
F15E	91.6 µM
W134I	1.46 µM
S11Y	2.87 µM
R98V	23.5 µM
G23Y	18 µM
E4V	1.16 µM
I52P	213 µM

Study 2
Target: Histone acetyltransferase KAT6A, winged helix 2, GST fusion (KAT6A, Homo sapiens, UniProt Q92794, residues 85-181)
Method: protein binding microarray
Form: double-stranded DNA, one strand shown
Sample: in vitro
Concentration: not given
Setting: 8-mer, flanks averaged, mean of 2 arrays, mostly near background
Baseline: not given
Direction: higher = stronger binding
Residues (chain): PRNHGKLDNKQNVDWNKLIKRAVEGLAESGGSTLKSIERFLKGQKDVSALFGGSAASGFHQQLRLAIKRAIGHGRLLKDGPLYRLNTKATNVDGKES
Strand	E-score
GTTAGACA	0.0771
AAGTCGGT	-0.0571
AATTTGGT	0.0121
ACTAGTGC	-0.0146
GCGCCGAA	0.152
AAACATCG	-0.0748
CGCTCCAC	0.0285
AGCCCGCG	0.169
CGTGAATA	-0.162
ACGACGCA	0.119
GTTGAAGA	-0.0947
ACCCACAT	-0.00089
CTTCCCGC	0.132
AAGTAGCC	-0.103
GCTTGAAA	0.143
GACCTGAC	0.11
CCAGGCTA	0.0616
TATCTAAA	-0.104
CGACAATC	-0.0324
CGTGTTCC	0.0718
AACGCAAC	0.188
CGACGACG	-0.0346
GCCGTCAC	0.181
AGTTCCGA	-0.0013

Study 3
Target: CCND1, cyclin fold, Cln2 fusion (human)
Method: yeast growth competition, sequencing
Sample: yeast
Setting: strong parent motif
Baseline: not given
Direction: higher = stronger binding
Starting sequence: RBL2 docking peptide (human); STTRRRLFVENDS
Variant	normalised enrichment score
STTRRRLRVENDS [F8R]	-0.176
STTRSRLFVENDS [R5S]	-0.294
STTRRRLFVHNDS [E10H]	0.196
SITRRRLFVENDS [T2I]	0.431
STTRRRLFVETDS [N11T]	1.08
STTRRRLMVENDS [F8M]	-0.394
STTRRRLEVENDS [F8E]	0.232
STTRRRLFVELDS [N11L]	0.0671
STTRRRLSVENDS [F8S]	0.758
STTRRRLFVENDE [S13E]	1.6
STTRRRGFVENDS [L7G]	-0.706
STTRRRLFVENDM [S13M]	0.0333
STTRRRLFSENDS [V9S]	1.61
STTRRRLFVFNDS [E10F]	0.425
STTRRRLFVSNDS [E10S]	0.569
STTSRRLFVENDS [R4S]	0.45
STTRRRLFVENVS [D12V]	0.361
STTRRRLFAENDS [V9A]	1.39
STTRRRLFNENDS [V9N]	1.65
STTRRRKFVENDS [L7K]	-0.463
STTRRRLFGENDS [V9G]	0.24
STTRRRLFVWNDS [E10W]	0.0439
STTRPRLFVENDS [R5P]	1.65
STTRRRLFVPNDS [E10P]	0.772
STTRRRLFVENDD [S13D]	1.68

Study 4
Target: BATF, bZIP domain (human)
Method: DHFR protein complementation
Sample: yeast
Setting: single substitutions, most at no-binding floor
Baseline: wild-type JUN-FOS pair
Direction: higher = stronger binding
Starting sequence: JUN, bZIP domain (human); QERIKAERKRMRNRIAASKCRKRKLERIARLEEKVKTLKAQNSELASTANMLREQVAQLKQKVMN; partner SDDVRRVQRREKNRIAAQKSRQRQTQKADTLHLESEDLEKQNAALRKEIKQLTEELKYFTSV
Variant	binding fitness [natural log]
V35T	-0.24
V56M	-0.298
Q55E	-0.0747
R30A	0.212
V35F	-0.194
N42F	-0.283
R30M	0.0358
A49P	-1.24
Q55K	0.0716
R30H	0.038
E32A	0.221
S47P	-0.94
S47A	0.0789
E44T	-0.111
I28D	-0.00677
S43G	0.018
A29F	-0.113
L52G	-1.15
K39L	-0.257
R30C	0.0016
N42K	-0.201
Q41W	-1.24
A40P	-1.22
L45P	-1.18
A46Q	0.0583

Repeated from above (study 3):
Variant	normalised enrichment score
STTRRRLFVENDE [S13E]	1.6
STTRRRGFVENDS [L7G]	-0.706
STTRRRLFVENDM [S13M]	0.0333
STTRRRLFSENDS [V9S]	1.61
STTRRRLFVFNDS [E10F]	0.425
